# Results collected from several papers.
# Each numbered part is a random draw from the data of one study; scales do not carry over between parts. Positions count from the first letter of the parent shown.

# Study 1
# Target: CCND1, cyclin fold, Cln2 fusion (human)
# Technique: yeast growth competition, sequencing
# Matrix: yeast
# Setting: weak parent motif
# Reference: not given
# Reading: higher = stronger binding
# Starting sequence: SLBP docking peptide (human); ARYKRKLLINDFG; partner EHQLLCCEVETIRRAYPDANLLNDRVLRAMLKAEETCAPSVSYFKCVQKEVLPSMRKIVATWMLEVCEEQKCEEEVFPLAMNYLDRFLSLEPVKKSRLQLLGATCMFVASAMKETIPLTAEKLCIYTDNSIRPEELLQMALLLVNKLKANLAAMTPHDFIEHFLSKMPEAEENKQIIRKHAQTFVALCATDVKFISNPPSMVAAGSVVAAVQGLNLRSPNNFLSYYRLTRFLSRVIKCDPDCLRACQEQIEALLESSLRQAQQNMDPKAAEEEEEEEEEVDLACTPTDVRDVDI
Change,normalised enrichment score
ARYMRKLLINDFG [K4M],0.292
ARYKRKLLICDFG [N10C],0.0379
GRYKRKLLINDFG [A1G],0.0981
ARYKCKLLINDFG [R5C],0.527
ARGKRKLLINDFG [Y3G],-0.196
ARYWRKLLINDFG [K4W],0.881

# Study 2
# Target: PABPC1L2, full length, GST fusion (mouse, UniProt A0ABA7IW68)
# Technique: RNAcompete
# Form: RNA
# Matrix: in vitro
# Concentration: 20 nM
# Setting: 7-mer, probes averaged, single round
# Reference: mean of 7-mers
# Reading: higher = stronger binding
# Residues (chain): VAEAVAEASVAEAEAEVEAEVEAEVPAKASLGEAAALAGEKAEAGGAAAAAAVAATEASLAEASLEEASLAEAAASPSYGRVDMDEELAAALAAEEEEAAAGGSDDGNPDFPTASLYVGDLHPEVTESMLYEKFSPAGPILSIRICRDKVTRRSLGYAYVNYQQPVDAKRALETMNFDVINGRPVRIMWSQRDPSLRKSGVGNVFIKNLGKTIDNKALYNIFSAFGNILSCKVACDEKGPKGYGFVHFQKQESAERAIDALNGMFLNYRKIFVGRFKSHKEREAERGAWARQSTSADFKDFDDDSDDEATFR
Oligonucleotide,7-mer Z-score
UUUGAAG,-0.28
GUGGUAU,-0.177
AAGGUGU,0.0986
GCACAUU,-0.231
AUAAUUA,-0.0156
UCGGCUU,-0.246

# Study 3
# Target: Transcription factor Sp1 (SP1, Homo sapiens, UniProt P08047, residues 1-785, full length assumed)
# Chain of UniProt P08047 (whole entry, looked up): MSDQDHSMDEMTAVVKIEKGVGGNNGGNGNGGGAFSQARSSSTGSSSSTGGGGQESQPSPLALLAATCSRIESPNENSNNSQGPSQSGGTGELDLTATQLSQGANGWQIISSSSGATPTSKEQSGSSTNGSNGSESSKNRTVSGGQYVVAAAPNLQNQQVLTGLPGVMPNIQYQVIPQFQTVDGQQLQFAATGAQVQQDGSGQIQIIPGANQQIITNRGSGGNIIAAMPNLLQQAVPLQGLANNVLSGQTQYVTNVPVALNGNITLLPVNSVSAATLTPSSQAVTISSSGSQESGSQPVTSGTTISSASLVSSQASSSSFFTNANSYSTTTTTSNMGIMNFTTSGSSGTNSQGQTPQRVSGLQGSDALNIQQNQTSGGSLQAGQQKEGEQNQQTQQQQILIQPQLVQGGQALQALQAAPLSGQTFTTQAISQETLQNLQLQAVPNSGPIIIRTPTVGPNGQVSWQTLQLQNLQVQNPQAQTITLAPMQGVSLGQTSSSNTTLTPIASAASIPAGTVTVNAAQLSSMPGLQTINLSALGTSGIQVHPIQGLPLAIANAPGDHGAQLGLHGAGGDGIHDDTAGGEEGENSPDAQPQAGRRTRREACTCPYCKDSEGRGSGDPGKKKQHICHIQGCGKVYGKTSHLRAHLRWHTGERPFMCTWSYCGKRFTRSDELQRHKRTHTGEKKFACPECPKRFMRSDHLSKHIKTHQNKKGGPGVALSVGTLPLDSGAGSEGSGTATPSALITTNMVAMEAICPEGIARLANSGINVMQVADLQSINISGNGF
# Technique: protein-binding microarray
# Form: double-stranded DNA, one strand shown
# Matrix: in vitro
# Concentration: not given
# Setting: k-mer, scored over probes, only values ≥0.25
# Reading: higher = stronger binding
Oligonucleotide,E-score
AGGTAAAG,0.282
AAGGATAT,0.259
ACATGTAT,0.301
CCGCCCCA,0.487
AGAACAAT,0.263
ACCCCACT,0.357

# Further values, each from its own experiment
Molecule,target,test,system,conditions,scale,measurement,value
"PhoQ, residues 284 288 289 292 302 303 TGYLSA","PhoP, residues 12 14 15 18 19 SEGLL (Escherichia coli, UniProt P23836)","Sort-seq, refers to: YFP reporter",E. coli,"PhoQ-PhoP variant library, together with: 10 µM Mg2+","reference: high Mg2+ state, higher = stronger signaling",fold induction,17.9

# A few entries again (study 1):
Change,normalised enrichment score
ARYMRKLLINDFG [K4M],0.292
ARGKRKLLINDFG [Y3G],-0.196
